# Experimental data gathered from unrelated publications.
# A part holds a random share of what one study measured.

# Set 1 — technique: protein binding microarray; form: double-stranded DNA, one strand shown; sample: in vitro; concentration: not given; relative to: not given; direction: higher = stronger binding
# Target: Histone acetyltransferase KAT6A, both winged helices, GST fusion (KAT6A, Homo sapiens, UniProt Q92794, residues 1-181)
# Notes: 8-mer, flanks averaged, mean of 2 arrays, mostly near background
# Residues (chain): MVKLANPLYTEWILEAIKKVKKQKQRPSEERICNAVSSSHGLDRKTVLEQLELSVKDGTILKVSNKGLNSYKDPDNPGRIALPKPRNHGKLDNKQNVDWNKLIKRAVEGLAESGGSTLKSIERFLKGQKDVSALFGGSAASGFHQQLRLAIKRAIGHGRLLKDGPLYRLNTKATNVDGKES
Sequence,E-score
AGTCTAAG,-0.0195
CGATCGGA,0.116
CGGCGCCA,0.305
CTGCGCCA,0.104
CCCTGAGA,-0.297
CGTGAACC,0.153
CTAAAGCC,-0.101
GAGCAAGC,-0.0169
ATTTTCTC,-0.0734
GGCATAAC,0.041
CGTCCCGC,0.309
AAGGATAA,-0.124
AACCGGTA,0.217
CATTCTAG,-0.176
CTTCCATA,-0.148
CTATGACC,-0.0331
ATGCTGGG,-0.203
ACCCGCGA,0.204
CTCTGCTA,-0.122
AGTAGAAC,-0.106
ACCGCTCA,0.234

# Set 2 — technique: RNA Bind-n-Seq; form: RNA; sample: in vitro; concentration: 365 nM; relative to: no-protein control; direction: higher = stronger binding
# Target: RNA binding protein fox-1 homolog 2, RRM domain, GST-SBP tag (RBFOX2, Homo sapiens, UniProt O43251-10, residues 100-194)
# Notes: natural RNA segment, single round, ends assumed
# Shared flanks, not repeated: GGGAGUUCUACAGUCCGACGAUC … UGGAAUUCUCGGGUGCCAA
# Residues (chain): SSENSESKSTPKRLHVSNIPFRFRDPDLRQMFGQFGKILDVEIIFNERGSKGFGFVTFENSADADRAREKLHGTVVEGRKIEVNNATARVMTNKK
Sequence,RBNS enrichment (R)
CCUGCCCUAGAAACUCCAUAAAUGCUGUCACAACCCUAUCAUCGCUGAUGCUUUCUGCAUGUCAGCAGUCCAGGAGGAUGCUUUUUGUCUCUCUUUGCCUCCACUUUACA,0.786
GAAGCACCUUUUGGGUUUGCGAUACCAAUCAACAUAAGGUGUUGUUGACUCGGGUACAAUAAAACUCUCAACACACACAAAGCCCAUCAGGCAAGAGUACAGUAAGCCUA,0.499
CAGUUAGGGGAGGCCCUACUGCCUUCUCAAAGCAGAGAGGCAGCUUAUCAAACUCAGCCCAAAACUCUGUUUACAUGGGUGGGGAGAUGGAGCAGGGAAGUACAGAGUGG,0.392
UGGGCAGGAGACAGACUGGGGACUGAGCUGGGAUAUGGGGACUAGCAUCAAAGCUUUCUCCUGACAUCUCUUUCCAAGAGUCGGGGUGGCAUCUGUACCCCACCUCACCC,0.539
UCAGGGUGGCUGUGAUACAGGUUCCCCAUGUCCUUGCCGUGGGUCAUCCUUGCUGUGGGUCAUCCUUGCUGUGGAGAUCCAUUCCCCACCUUUCCUGUGGCCCAACCUUU,0.23
AAUAUGAGGACUAGGGGCACACAAGAGUCUAGCUUCGUCUCCAGGACUCCCUUGGCUCAGAGUGUGGUGCUAGAAACUGGUCCCCAGCCCAGUCCCAGUACUGCCAUCUU,0.443
UGGCAGGAUUCUUUCUUGAAUUAAUAUUAAUCCUUAAAUUGAUUUUUCUGGGAUUAUACAAAUUCCUUUUUAUAUAAAAGUAUAUUGUUUAAAACAGUAGCUAUAGCCAU,0.843
AGCCUCCCGAGUAGCUGGGAUUAUGGGCGCCCACCACCAUGCCCAGCUAAUUUUUGUAUUUUUUUUUUUUAGUAGAGAUGGGGUUUCGCCAGGUUGGCCAGGCUGGUCUU,1.7

# Set 3 — technique: competition protein-binding microarray; form: double-stranded DNA, one strand shown; sample: in vitro; concentration: 2 µM; together with: Cbf1 competitor, 0.05 µM; direction: higher = stronger binding; shared flanks, not repeated: … GTCTTGATTCGCTTGACGCTGCTG
# Target: Phosphate system positive regulatory protein PHO4, full length, GST-tagged (PHO4, Saccharomyces cerevisiae, UniProt P07270, residues 1-312)
# Notes: whole 60-bp probe, lowest competitor level
# Construct (chain): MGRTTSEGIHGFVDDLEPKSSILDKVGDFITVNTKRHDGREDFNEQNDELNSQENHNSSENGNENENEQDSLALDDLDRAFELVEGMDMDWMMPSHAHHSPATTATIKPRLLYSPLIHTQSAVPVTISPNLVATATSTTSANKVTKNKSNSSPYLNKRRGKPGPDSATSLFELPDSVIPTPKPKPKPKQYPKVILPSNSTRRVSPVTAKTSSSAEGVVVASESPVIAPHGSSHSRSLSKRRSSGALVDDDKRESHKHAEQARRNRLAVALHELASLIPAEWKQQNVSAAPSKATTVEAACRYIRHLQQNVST
Sequence,fluorescence intensity [a.u.]
GTCTTGTCTCATTGTCACAGGACTTTCCCCACTTCA,4580
CATACCCAACCTTGCTCCGTGGGTGAAGATATTTGT,6480
TTGCCGTTGCAAGTGAACGTGCAAATGTATTTATAT,11800
AAAGCGGTAATTTGTCACTTGACTTCACATATCTAT,3390
AAATTACTAAGTTTTCACGTGACGTACCCCGTATGA,11200
TGCGCAACAACTTGTATCGTGGGTGTATGTCTAGAA,7080
CTAACGAAGGTTTTTCACGTGGGGTACAAGCCAAGT,14400
AGCAGGAATCATACCCACGCATCTCATTTTGCGTTA,8410
GTCTTGTCTCATTGGTTCGTGGGTGTCCCCACTTCA,6780
CGGGGTTAAGTTTGTCACTTTACTTGCTTGCAGCAG,3160
GATGTAATGTCCACACAGGTGATGGAATCATCCATT,4870
AAATTACTAAGTTGGTTCGTGGGTGACGCCGTATGA,6010
TGCGCAACAACTTGCTATGTGGGTGTATGTCTAGAA,4850
AACCACTCGTCGAGTCACACGGAGAGTTGGCCATGA,4610
CATCCCACCCAATCGCACGGGTCTTCTGTGCGAATG,9770
ATTTGATATGCCTCTCTCGTGGCCGGCCCATTATAT,7710
TCAACGCCTTTTACCTTGTCCTTTGATGCCTGTCTC,3330
CTAACGAAGGTTTGTCACTCGACTTACAAGCCAAGT,3180
CCAGGGCCAGGGACTCACGTGTGAAGGTCTGCAGCC,10200

# Set 4 — technique: aptamer microarray, sandwich; form: DNA with 2'F-ANA; sample: in vitro; concentration: 200 nM; together with: Cy3 exosite-II aptamer, 400 nM; direction: higher = stronger binding; sequence: GGTTGGTGTGGTTGG
# Target: Prothrombin, mature alpha-thrombin (F2, Homo sapiens, UniProt P00734)
# Notes: whole 15-mer aptamer, many near background
Modification,mean fluorescence intensity
2'F-ANA at 1 2 4 5 6 8 11 12 13 14,47.7 a.u.
2'F-ANA at 1 3 5 6 7 8 9 10 12 13 14,49.3 a.u.
2'F-ANA at 2 4 6 12 13 14,108 a.u.
2'F-ANA at 2 3 5 10 11 13 14 15,53.8 a.u.
2'F-ANA at 3 5 6 8 10 11 12 15,101 a.u.
2'F-ANA at 1 2 5 7 9 11 12 14 15,44.1 a.u.
2'F-ANA at 1 3 4 5 8 10 13,56.1 a.u.
2'F-ANA at 4 7 9 10 12 13 14,58.6 a.u.
2'F-ANA at 1 2 4 6 7 8 13 14,55.1 a.u.
2'F-ANA at 4 5 7 8 9 10 12,50.9 a.u.
2'F-ANA at 5 6 7 11 12 14 15,47.7 a.u.
2'F-ANA at 1 2 3 4 7 11 12 13 14,71.6 a.u.
2'F-ANA at 2 4 8 10 11 12 14 15,61.3 a.u.
2'F-ANA at 1 3 5 6 8 10 13,48.8 a.u.
2'F-ANA at 4 5 11 13 14,43.3 a.u.
2'F-ANA at 2 3 7 8 11 12 13 14 15,451 a.u.
2'F-ANA at 3 4 7 8 12,1280 a.u.
2'F-ANA at 1 3 6 8 12 13 14,122 a.u.
2'F-ANA at 2 3 4 6 8 9 10 13 15,176 a.u.
2'F-ANA at 2 5 7 8 10 12 13 14 15,49.9 a.u.
2'F-ANA at 1 2 3 5 6 10 12,47.9 a.u.
2'F-ANA at 2 3 4 7 8 11 12 13,633 a.u.
2'F-ANA at 2 3 7 8 11 12 14 15,498 a.u.
2'F-ANA at 3 9 11 13 14,565 a.u.
2'F-ANA at 1 4 5 7 8 9 10 11 12 13 15,49.2 a.u.

# Repeated from above (set 2):
Sequence,RBNS enrichment (R)
CCUGCCCUAGAAACUCCAUAAAUGCUGUCACAACCCUAUCAUCGCUGAUGCUUUCUGCAUGUCAGCAGUCCAGGAGGAUGCUUUUUGUCUCUCUUUGCCUCCACUUUACA,0.786
CAGUUAGGGGAGGCCCUACUGCCUUCUCAAAGCAGAGAGGCAGCUUAUCAAACUCAGCCCAAAACUCUGUUUACAUGGGUGGGGAGAUGGAGCAGGGAAGUACAGAGUGG,0.392
UGGCAGGAUUCUUUCUUGAAUUAAUAUUAAUCCUUAAAUUGAUUUUUCUGGGAUUAUACAAAUUCCUUUUUAUAUAAAAGUAUAUUGUUUAAAACAGUAGCUAUAGCCAU,0.843
GAAGCACCUUUUGGGUUUGCGAUACCAAUCAACAUAAGGUGUUGUUGACUCGGGUACAAUAAAACUCUCAACACACACAAAGCCCAUCAGGCAAGAGUACAGUAAGCCUA,0.499
AGCCUCCCGAGUAGCUGGGAUUAUGGGCGCCCACCACCAUGCCCAGCUAAUUUUUGUAUUUUUUUUUUUUAGUAGAGAUGGGGUUUCGCCAGGUUGGCCAGGCUGGUCUU,1.7
UGGGCAGGAGACAGACUGGGGACUGAGCUGGGAUAUGGGGACUAGCAUCAAAGCUUUCUCCUGACAUCUCUUUCCAAGAGUCGGGGUGGCAUCUGUACCCCACCUCACCC,0.539
UCAGGGUGGCUGUGAUACAGGUUCCCCAUGUCCUUGCCGUGGGUCAUCCUUGCUGUGGGUCAUCCUUGCUGUGGAGAUCCAUUCCCCACCUUUCCUGUGGCCCAACCUUU,0.23
AAUAUGAGGACUAGGGGCACACAAGAGUCUAGCUUCGUCUCCAGGACUCCCUUGGCUCAGAGUGUGGUGCUAGAAACUGGUCCCCAGCCCAGUCCCAGUACUGCCAUCUU,0.443
